Assay results gathered from unrelated publications.
Every numbered part comes from another study and shows a few of its results, in no order. Substitutions count along the parent as printed.

Block 1 — technique: DHFR PCA, deep sequencing; matrix: yeast; added: (+)-ABA 0.032 µM; baseline: wild-type fitted maximum; reading: higher = stronger binding; quantity: relative binding score
Target: ABI1, truncated, D143A, DHFR fusion (Arabidopsis thaliana)
Notes: methotrexate growth selection, single substitutions
Starting sequence: PYL1, truncated, DHFR fusion (Arabidopsis thaliana); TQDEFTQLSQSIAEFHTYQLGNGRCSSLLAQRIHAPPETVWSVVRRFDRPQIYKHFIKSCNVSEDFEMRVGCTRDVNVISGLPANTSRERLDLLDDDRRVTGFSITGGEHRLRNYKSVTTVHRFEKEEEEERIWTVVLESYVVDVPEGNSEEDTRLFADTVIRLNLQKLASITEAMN; partner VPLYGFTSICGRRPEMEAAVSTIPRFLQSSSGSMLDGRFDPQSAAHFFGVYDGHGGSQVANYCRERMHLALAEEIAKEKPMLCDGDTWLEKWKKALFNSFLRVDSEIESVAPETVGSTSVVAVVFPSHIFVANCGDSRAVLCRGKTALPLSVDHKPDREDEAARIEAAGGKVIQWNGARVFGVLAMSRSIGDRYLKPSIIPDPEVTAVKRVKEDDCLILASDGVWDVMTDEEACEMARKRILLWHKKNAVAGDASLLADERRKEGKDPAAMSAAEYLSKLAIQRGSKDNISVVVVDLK
L82A: 1.25%
A175Y: -2.79%
S140F: -3.23%
A158C: 66.8%
F56E: 2.68%
T6V: 37.3%
F47V: -0.0906%
H34P: 0.658%
V145G: -3.52%
E89Y: -1.65%
A170V: -2.06%
V70R: 1.54%

Block 2 — technique: RNA Bind-n-Seq; molecule type: RNA; matrix: in vitro; tested at: 365 nM; baseline: no-protein control; reading: higher = stronger binding; quantity: RBNS enrichment (R)
Target: RNA binding protein fox-1 homolog 2, RRM domain, GST-SBP tag (RBFOX2, Homo sapiens, UniProt O43251-10, residues 100-194)
Notes: natural RNA segment, single round, ends assumed
Constant ends, left off below: GGGAGUUCUACAGUCCGACGAUC … UGGAAUUCUCGGGUGCCAA
Target sequence (chain): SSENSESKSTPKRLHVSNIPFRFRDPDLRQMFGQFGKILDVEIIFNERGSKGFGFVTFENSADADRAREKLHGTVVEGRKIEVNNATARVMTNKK
GCAGGGUGUUAGCAAAGUUUUCCCAGUUAGUAGUGCCAGUUCUAGGCUGAAUGGGAGAGUCCUCCACAACUCCCUGUGUGCCUCAUGGAAAAUAAAGUUUUUUGCACCAU: 0.879
CCUGCACUCAAGCCGCAGGGUAGUACAGUUUUACCACAGAGGGACUCUUGAGCAAUGGAGUCACGUGUCUGCCCUGUGUAUUGCAGUUUGUCUUGACACAAGCUGUUUUU: 0.407
AGAGUGACUGGGUGUGCCAAAAUAUGCCCAGGGUCCUGCCCUCAGCACUAGAUUUAAUGGGGCCAAGAGGGUCCAAACCCCUUGCUAACAUACCACUUCUUUGUUUAACU: 0.269
CACCCACACUAGCCCCAGAAUACGGUCCCUCUUCACCUUCUGAGGCCCACGAUAGACCAGCUGUAGCUCAUUCCAGCCUGUACCUUGGAUGAGGGGUAGCCUCCCACUGC: 0.662
CGGGCAGGACCCCGUCUCCCCAGGUGUCGGAGCCUGACCUGAAUUAAAGUACUGACUGCUCGCCACAUCGUGUGGGUGCAUCCUGCUCCUUGGGGAGCCUUGCUUUCUGC: 0.723
GAGCCCUAGUAAAGGAACUAUGCAAAUGCAGGCCACUCUCCCCACCACGUCUGUGCCCUGCACUGUCCCCACAGCCUUCCACACCCUGUGCAUAGGCAGCCCUCUCACGU: 0.634
UUUCAGACAUAACCAACUUAUAAAUGACCUAUUUCUUCAGGCUAGCUUCUACAACACUGACCUCCAUGAGGUAUUUACUGUGCAAUAACAGAUUCGUCUUCUGAGAGCUU: 0.275
ACGGUCUGGCUCUGUCGCCUAAGCUGGAGUGUGGUGGCACGAUCACAGCUCACUGCAGCCUCCAUCUCCUAGGCUCAAGCCAUUUUCCCACCUCAGCCUCCCGAGUAGCU: 0.864
UUCCGGAUAAUUUUAUAUAUCAAACAUACAGGAUGGAUACAUAGUUGGCAACAGUCUACCUUAUUUAAAGCUUCUACUGGGAUAAACCUCAAUUCCUUUAUUCAGGAAAG: 0.525
CUUUGUUGCUAUCAAUCCAAGAACUUAUUUGUACAUUUUUUUUUUCAAUAAAACUUUUCCAAUGACAUUUUGUUGGAGCGUGGAAGAAGAUUGGAUCAGGAGAUUCUUAC: 0.45
AGCCACAGCGCUAGAUAAGCCUCACAGUUGUCCAGGGGAAGGGUUUAGGAAUUGGGUCUUUUGUCCAAGUGACUUCGGUCUUAAGAAGAAAUAGUGUUGGGAGGGAACCU: 0.891
AUAUAAUAAAUGGGAAAUGUCGAUUUUCAAUAAUAGACUUAUAUGCAGGCUGUCGUUCCGGUUAUGUUGUGUAAGUCAACUCUUCAGCCUCAUUCACUGUCCUGGCUUUU: 0.346

Block 3 — target: ATF3, bZIP domain (human); technique: DHFR protein complementation; matrix: yeast; baseline: wild-type JUN-FOS pair; reading: higher = stronger binding; quantity: binding fitness
Notes: single substitutions, most at no-binding floor
Starting sequence: JUN, bZIP domain (human); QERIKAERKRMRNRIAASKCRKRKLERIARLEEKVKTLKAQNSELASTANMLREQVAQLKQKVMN; partner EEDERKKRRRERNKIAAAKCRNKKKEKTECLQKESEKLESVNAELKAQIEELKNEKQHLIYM
S47N: -0.112 natural log
R30W: -0.0935 natural log
K36T: -0.243 natural log
V35E: -1.39 natural log
A46C: -0.295 natural log
V56P: -0.966 natural log
A46H: -0.206 natural log
K39F: -0.861 natural log
M51Q: -0.113 natural log
R30S: -0.0105 natural log
L31M: -0.178 natural log
R53G: -0.45 natural log
R53T: -0.393 natural log

Block 4 — target: CCNB1, cyclin fold, Cln2 fusion (human); technique: yeast growth competition, sequencing; matrix: yeast; notes: strong parent motif; baseline: not given; reading: higher = stronger binding; quantity: normalised enrichment score
Starting sequence: CUX1 docking peptide (human); SRIRRELFIEEIQ
SRIRRELFIAEIQ [E10A]: 0.89
SRIRRELFIEEIA [Q13A]: 1.74
SRIRRELLIEEIQ [F8L]: -0.148
SRIRRELFIEAIQ [E11A]: 0.945
SRIRRELFIEEAQ [I12A]: 0.749
SRIRRALFIEEIQ [E6A]: 1.66
SRARRELFIEEIQ [I3A]: 0.346

Block 5 — technique: protein binding microarray; molecule type: double-stranded DNA, one strand shown; matrix: in vitro; tested at: not given; baseline: not given; reading: higher = stronger binding; quantity: E-score
Target: Histone acetyltransferase KAT6A, both winged helices, GST fusion (KAT6A, Homo sapiens, UniProt Q92794, residues 1-181)
Notes: 8-mer, flanks averaged, mean of 2 arrays, mostly near background
Construct (chain): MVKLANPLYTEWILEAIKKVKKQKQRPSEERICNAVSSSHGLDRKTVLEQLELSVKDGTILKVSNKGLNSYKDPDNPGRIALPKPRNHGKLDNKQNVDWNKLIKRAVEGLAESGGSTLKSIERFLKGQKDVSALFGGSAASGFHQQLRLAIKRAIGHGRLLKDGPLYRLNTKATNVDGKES
ATTGGGAC: -0.27
ACACCGGA: -0.0122
AAGAGCTT: -0.0497
AAGGCCTT: -0.117
AGTACCGC: 0.318
GTGCGAGA: -0.18
CCTGTTAA: -0.194
TAACTATA: -0.153
AGCGTAGA: 0.0476
CATCCACA: -0.189
ACGTAATA: -0.0813
GCCTGGAA: -0.235
GCTGGCCC: -0.0818
CCCTCACC: -0.0986
CACGATTA: -0.0172
ACCGTGAA: 0.111
ACGATGTC: 0.0375
GGTTTCGA: 0.195
AGTCCTGG: -0.257
AATAAGAT: -0.0632
AGATAGAC: -0.151
ACCGACCG: 0.199
AACGATTC: 0.0491
AGTACCAC: -0.0592
ATTCTTCC: -0.052

Block 6 — technique: protein-binding microarray; molecule type: double-stranded DNA, one strand shown; matrix: in vitro; tested at: 250 nM; notes: 60-bp whole probe; added: salmon DNA 0.4 mg/ml; baseline: random background probes; reading: higher = stronger binding; quantity: log fluorescence; constant ends, left off below: GCCTAGCAC … GTCTTGATTCGCTTGACGCTGCTG
Target: Interferon regulatory factor 7, full length, phosphomimetic (IRF7, Homo sapiens, UniProt Q92985, residues 1-503, S101K/S471D/S472D/S475D/S476D/S477D/S483D/S484D/S487D)
Sequence of UniProt Q92985 (whole entry, unmodified, looked up): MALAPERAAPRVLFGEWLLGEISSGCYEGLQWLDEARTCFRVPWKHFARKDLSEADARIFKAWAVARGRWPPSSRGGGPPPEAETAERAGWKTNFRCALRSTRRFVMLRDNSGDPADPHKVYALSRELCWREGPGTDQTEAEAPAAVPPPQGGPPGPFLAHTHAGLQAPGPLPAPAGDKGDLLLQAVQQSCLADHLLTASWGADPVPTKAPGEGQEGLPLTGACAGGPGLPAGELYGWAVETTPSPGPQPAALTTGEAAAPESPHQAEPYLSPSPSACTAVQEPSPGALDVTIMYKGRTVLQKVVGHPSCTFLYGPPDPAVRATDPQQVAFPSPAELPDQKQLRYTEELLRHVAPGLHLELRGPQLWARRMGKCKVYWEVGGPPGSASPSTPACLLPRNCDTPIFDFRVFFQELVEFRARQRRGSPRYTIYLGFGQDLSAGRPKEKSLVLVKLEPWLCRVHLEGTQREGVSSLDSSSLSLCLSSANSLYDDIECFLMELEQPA
GCCGGTCTCGGTTTCGGGACGTGCTAG: 8.26 z-score
TTAGATTTCTGTTTCGATTAGTGCTAG: 5.54 z-score
GACGATCTCATTCTCGAGACGTGCTAG: 0.456 z-score
GACGGACTGGGTTTCGGAACGTGCTAG: 3.64 z-score
TTAGCACTGGGTTTCGGTTAGTGCTAG: 6.7 z-score
GAACCTTCAGCTCTAGGTTCGTGCTAG: 1.29 z-score
TACGGTATCCTTATCCTGACGTGCTAG: 0.514 z-score
TTAGATTTCCGTATCGATTAGTGCTAG: 1.36 z-score
CTTGTGCTCCTTTTAATTTTGTGCTAG: 0.144 z-score
TTAGGTGTCCTACTGCTTTAGTGCTAG: -0.404 z-score
TTAGGACTACTTTTCCTTTAGTGCTAG: 1.3 z-score
GACTGTATCGGTTTCGGGACGTGCTAG: 4.17 z-score
TTAGAATTCAGACTGGATTAGTGCTAG: -0.185 z-score
GATGGGCTACCTCTCTTAGAGTGCTAG: -0.955 z-score
TTCACTCTCTGCTTGTATCTGTGCTAG: 0.423 z-score
GACGTTATCGGGTTTCGAGACGTGCTA: 2.72 z-score
TCAACTCTGGAGGTTGAGACTGTGCTA: -0.719 z-score
TTAGGTTTCGATCTCGGTTAGTGCTAG: 9.46 z-score
GACGGTTCCCTTTTCCTGAGGTGCTAG: 2.56 z-score
TTAGGTTTCTTACTGCTTTAGTGCTAG: 0.747 z-score
TTAGATTTCAGTCTCGATAAGTGCTAG: 0.981 z-score
CAGCGCGCAGCTGCCAGAACGTGCTAG: -1.56 z-score
GACGAACTGAGTTTCGAAACGTGCTAG: 5.32 z-score
GACGAACTGCGTATCGAGACGTGCTAG: -0.423 z-score
GACGGTATCCGACTGGGGACGTGCTAG: -0.166 z-score

Further values, each from its own experiment
PhoQ, residues 284 288 289 292 302 303 SCKMEA  fold induction (PhoP, residues 12 14 15 18 19 LHHVQ (Escherichia coli, UniProt P23836); Sort-seq, measured: YFP reporter; E. coli; PhoQ-PhoP variant library, added: 10 µM Mg2+; baseline: high Mg2+ state, higher = stronger signaling): 18

Excerpt of the above (block 3):
K36T: -0.243 natural log
V35E: -1.39 natural log
A46C: -0.295 natural log
V56P: -0.966 natural log
A46H: -0.206 natural log
K39F: -0.861 natural log
M51Q: -0.113 natural log
